Published values from different studies.
Compare with care: the assays were run in different laboratories. ± marks the error that the study gave.
GUK1: GUK1 (Homo sapiens, UniProt Q16774)

| SMILES | target | assay | system | setting | ΔH [kcal/mol] |
| --- | --- | --- | --- | --- | --- |
| CC[C@H](C)[C@H](NC(=O)[C@H](CCCCN)NC(=O)CNC(=O)[C@@H](NC(=O)[C@@H](NC(=O)[C@H](CCSC)NC(=O)[C@H](Cc1c[nH]cn1)NC(=O)CN)[C@@H](C)O)C(C)C)C(=O)N[C@@H](Cc1ccc(O)cc1)C(=O)N[C@@H](C)C(=O)N[C@@H](C)C(=O)N[C@@H](CCSC)C(=O)N[C@@H](CCSC)C(=O)N[C@H](C(=O)N[C@@H](CCSC)C(=O)N[C@@H](CCC(=O)O)C(=O)N[C@@H](Cc1ccc(O)cc1)C(=O)N[C@@H](C)C(=O)N[C@@H](CCCNC(=N)N)C(=O)N[C@@H](CCC(N)=O)C(=O)N[C@@H](CO)C(=O)N[C@@H](CCCCN)C(=O)N[C@@H](C)C(=O)N[C@@H](CCCCN)C(=O)N[C@@H](CCCCN)C(=O)N[C@@H](CC(C)C)C(=O)N[C@@H](CCC(N)=O)C(=O)N[C@@H](C)C(=O)N[C@@H](CCSC)C(=O)N[C@@H](CCCNC(=N)N)C(=O)O)[C@@H](C)CC | Calmodulin-1, Ca2+-bound N-lobe (CALM1, Homo sapiens, UniProt P0DP23) | binding, isothermal titration calorimetry | – | pH 7.4, 15 °C, N-lobe, CaV2.1 IQ domain, added: Ca2+ | -4.93 ± 0.21 |
| Nc1ncnc2c1ncn2[C@@H]1O[C@H](COP(=O)(O)OP(=O)(O)O)[C@@H](O)[C@H]1O | GUK1 | binding, isothermal titration calorimetry | – | molar ratio 3.279, fitted curve | -0.13 |
| CC[C@H](C)[C@H](NC(=O)[C@H](C)NC(=O)[C@H](CCSC)NC(=O)[C@H](C)NC(=O)[C@H](C)NC(=O)[C@H](Cc1ccc(O)cc1)NC(=O)[C@@H](NC(=O)[C@H](CCCCN)NC(=O)CNC(=O)[C@@H](NC(=O)[C@@H](NC(=O)[C@H](CCSC)NC(=O)[C@H](Cc1c[nH]cn1)NC(=O)CN)[C@@H](C)O)C(C)C)[C@@H](C)CC)C(=O)N[C@@H](CCSC)C(=O)N[C@@H](CCC(=O)O)C(=O)N[C@@H](Cc1ccc(O)cc1)C(=O)N[C@@H](Cc1ccc(O)cc1)C(=O)N[C@@H](CCCNC(=N)N)C(=O)N[C@@H](CCC(N)=O)C(=O)N[C@@H](CO)C(=O)N[C@@H](CCCCN)C(=O)N[C@@H](C)C(=O)N[C@@H](CCCCN)C(=O)N[C@@H](CCCCN)C(=O)N[C@@H](CC(C)C)C(=O)N[C@@H](CCC(N)=O)C(=O)N[C@@H](C)C(=O)N[C@@H](CCSC)C(=O)N[C@@H](CCCNC(=N)N)C(=O)O | Calmodulin-1, Ca2+-bound C-lobe (CALM1, Homo sapiens, UniProt P0DP23) | binding, isothermal titration calorimetry | – | pH 7.4, 15 °C, C-lobe, CaV2.1 IQ domain, added: Ca2+ | -2.4 ± 0.56 |
| COc1cc(/C=C2\CC/C(=C\c3ccc(O)c(OC)c3)C2=O)ccc1O | haemin | binding, isothermal titration calorimetry | – | pH 7.4, 37 °C | -23.6 ± 0.492 |
| Nc1ncnc2c1ncn2[C@@H]1O[C@H](CO[P@](=O)(O)O[P@](=O)(O)O[P@@](=O)(O)S)[C@@H](O)[C@H]1O | GUK1 | ITC | – | molar ratio 1.741 | -0.6 |
| COc1cc(/C=C/C(=O)C(=Cc2ccccc2)C(=O)/C=C/c2ccc(O)c(OC)c2)ccc1O | haemin | binding, isothermal titration calorimetry | – | pH 7.4, 37 °C | -23.77 ± 0.131 |
| CC(=O)N[C@H](C(=O)N1C[C@H](O)C[C@H]1C(=O)NCc1ccc(-c2scnc2C)cc1)C(C)(C)SCCCCCCNC(=O)C[C@@H]1N=C(c2ccc(Cl)cc2)c2c(sc(C)c2C)-n2c(C)nnc21 | BRD4/VHL, BD1; with elongins B/C (Homo sapiens, UniProt O60885+P40337) | ternary complex binding, ITC | – | 25 °C, added: VHL-ElonginB-ElonginC titrated into compound:PROTAC:Brd4^BD1 complex | -2.2 ± 0.3 |
| COc1cc(/C=C/C(=O)C(=Cc2ccc([N+](=O)[O-])cc2)C(=O)/C=C/c2ccc(O)c(OC)c2)ccc1O | haemin | binding, isothermal titration calorimetry | – | pH 7.4, 37 °C | -23.6 ± 0.136 |
| CC[C@H](C)[C@H](NC(=O)[C@H](CCC(=O)O)NC(=O)[C@H](CCC(=O)O)NC(=O)[C@@H]1CCCN1C(=O)[C@H](CC(=O)O)NC(=O)[C@H](C)NC(=O)[C@H](CCC(N)=O)NC(=O)[C@@H](NC(=O)[C@H](C)NC(=O)[C@@H](NC(=O)[C@H](CO)NC(=O)[C@@H](NC(=O)[C@H](CCCCN)NC(=O)[C@@H](N)Cc1ccc(O)cc1)[C@@H](C)O)C(C)C)[C@@H](C)O)C(=O)N[C@H](C(=O)N[C@H](C(=O)N[C@@H](CC(C)C)C(=O)N[C@@H](CC(=O)O)C(=O)N[C@@H](CC(=O)O)C(=O)N[C@@H](CC(=O)O)C(=O)N[C@@H](CC(=O)O)C(=O)O)C(C)C)[C@@H](C)CC | Small ubiquitin-related modifier 2, N-terminally truncated (Homo sapiens, UniProt P61956, C48A) | binding, ITC | Tris buffer | pH 7.4, ΔN-SUMO2 | 1.48 ± 0.09 |

Repeated from above:
| SMILES | target | assay | system | setting | ΔH [kcal/mol] |
| --- | --- | --- | --- | --- | --- |
| CC(=O)N[C@H](C(=O)N1C[C@H](O)C[C@H]1C(=O)NCc1ccc(-c2scnc2C)cc1)C(C)(C)SCCCCCCNC(=O)C[C@@H]1N=C(c2ccc(Cl)cc2)c2c(sc(C)c2C)-n2c(C)nnc21 | BRD4/VHL, BD1; with elongins B/C (Homo sapiens, UniProt O60885+P40337) | ternary complex binding, ITC | – | 25 °C, added: VHL-ElonginB-ElonginC titrated into compound:PROTAC:Brd4^BD1 complex | -2.2 ± 0.3 |
| CC[C@H](C)[C@H](NC(=O)[C@H](CCC(=O)O)NC(=O)[C@H](CCC(=O)O)NC(=O)[C@@H]1CCCN1C(=O)[C@H](CC(=O)O)NC(=O)[C@H](C)NC(=O)[C@H](CCC(N)=O)NC(=O)[C@@H](NC(=O)[C@H](C)NC(=O)[C@@H](NC(=O)[C@H](CO)NC(=O)[C@@H](NC(=O)[C@H](CCCCN)NC(=O)[C@@H](N)Cc1ccc(O)cc1)[C@@H](C)O)C(C)C)[C@@H](C)O)C(=O)N[C@H](C(=O)N[C@H](C(=O)N[C@@H](CC(C)C)C(=O)N[C@@H](CC(=O)O)C(=O)N[C@@H](CC(=O)O)C(=O)N[C@@H](CC(=O)O)C(=O)N[C@@H](CC(=O)O)C(=O)O)C(C)C)[C@@H](C)CC | Small ubiquitin-related modifier 2, N-terminally truncated (Homo sapiens, UniProt P61956, C48A) | binding, ITC | Tris buffer | pH 7.4, ΔN-SUMO2 | 1.48 ± 0.09 |
